Measured values from different studies.
Each numbered part is a random draw from the data of one study; scales do not carry over between parts.

Sample 1
Target: Histone acetyltransferase KAT6A, winged helix 1, GST fusion (KAT6A, Homo sapiens, UniProt Q92794, residues 1-85)
Technique: protein binding microarray
Molecule type: double-stranded DNA, one strand shown
Sample: in vitro
Tested at: not given
Setting: 8-mer, flanks averaged, mean of 2 arrays, mostly near background
Relative to: not given
Reading: higher = stronger binding
Quantity: E-score
Residues (chain): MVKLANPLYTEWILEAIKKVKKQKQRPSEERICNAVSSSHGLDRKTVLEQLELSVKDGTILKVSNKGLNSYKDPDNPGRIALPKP
CAACAACA: -0.195
ATGTCGTC: -0.208
CTCCTTCA: -0.187
CAACACGA: -0.212
AGAGGAAG: -0.212
AAACTCCG: -0.0785
ACGCCGGC: 0.424
AAAAGCTA: -0.115
CCTCTTTC: -0.21

Sample 2
Target: Interferon regulatory factor 7, full length, phosphomimetic (IRF7, Homo sapiens, UniProt Q92985, residues 1-503, S101K/S471D/S472D/S475D/S476D/S477D/S483D/S484D/S487D)
Chain of UniProt Q92985 (whole entry, unmodified, looked up): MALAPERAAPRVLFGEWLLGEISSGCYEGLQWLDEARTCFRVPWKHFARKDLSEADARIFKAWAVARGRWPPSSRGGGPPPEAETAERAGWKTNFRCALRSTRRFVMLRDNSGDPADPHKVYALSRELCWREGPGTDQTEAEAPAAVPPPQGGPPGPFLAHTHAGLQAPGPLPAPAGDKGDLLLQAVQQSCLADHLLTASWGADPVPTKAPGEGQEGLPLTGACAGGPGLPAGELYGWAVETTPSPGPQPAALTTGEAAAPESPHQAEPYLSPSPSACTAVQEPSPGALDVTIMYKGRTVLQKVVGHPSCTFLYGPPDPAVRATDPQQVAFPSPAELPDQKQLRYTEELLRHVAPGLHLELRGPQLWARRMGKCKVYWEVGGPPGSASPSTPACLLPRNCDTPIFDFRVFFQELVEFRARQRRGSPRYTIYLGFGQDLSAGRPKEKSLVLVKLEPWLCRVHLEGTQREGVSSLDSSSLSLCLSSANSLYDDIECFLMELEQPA
Technique: protein-binding microarray
Molecule type: double-stranded DNA, one strand shown
Sample: in vitro
Tested at: 250 nM
Setting: 60-bp whole probe
With: salmon DNA 0.4 mg/ml
Relative to: random background probes
Reading: higher = stronger binding
Quantity: log fluorescence
Constant ends, left off below: GCCTAGCAC … GTCTTGATTCGCTTGACGCTGCTG
TTAGCTTTCGGGTATCGATTAGTGCTA: 1.35 z-score
TCATTCCTCTCACCTCGGACTGTGCTA: 1.7 z-score
TTAGGACTGGGGTACCGGTTAGTGCTA: 0.185 z-score
GACGGACTGGTTTTCCTGACGTGCTAG: -0.222 z-score
GACGGACTGGACTTTCGGGAAGTGCTA: -0.659 z-score
GACAGACTGGACTTTCGGGACGTGCTA: -0.383 z-score

Sample 3
Target: RNA binding protein fox-1 homolog 2, RRM domain, GST-SBP tag (RBFOX2, Homo sapiens, UniProt O43251-10, residues 100-194)
Technique: RNA Bind-n-Seq
Molecule type: RNA
Sample: in vitro
Tested at: 365 nM
Setting: natural RNA segment, single round, ends assumed
Relative to: no-protein control
Reading: higher = stronger binding
Quantity: RBNS enrichment (R)
Construct (chain): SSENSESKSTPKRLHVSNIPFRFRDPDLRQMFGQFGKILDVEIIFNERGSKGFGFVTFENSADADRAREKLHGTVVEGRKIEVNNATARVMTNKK
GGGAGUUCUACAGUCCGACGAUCCAAAAGCAUAAAAAACCACAGCAAAUUUCUUGAUGAGAACUGAAAAUAAAAGUUUCCUUGUAUUUUAGUGAUCUGGUUCUGUGUGGGUGAGUGUGGGUUCCAGGUACCCCUGGAAUUCUCGGGUGCCAA: 0.385
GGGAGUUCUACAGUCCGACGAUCGCCAGACCUCCUGACCCAAACACAGGGUCAGCCACUGAGGUUCCUGACUUAUCAGUGCCCAUCACUAUCUGGCGUUCUGAAAGUCCCAUAGAAAAGUGUCAGGAAAGCAAUGGAAUUCUCGGGUGCCAA: 0.247
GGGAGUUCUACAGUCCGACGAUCACAAGAGACUCUCUUUUUAAUUCCUUGAGUACCCUUUGCCCCACUUCCAAGAGAGGACAGCAAGUCCCCUGACACUGCAAAUUUCAUUUGAGCCUAGGGAGCUGGGAAAAUGGAAUUCUCGGGUGCCAA: 0.557
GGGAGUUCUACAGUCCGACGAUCUCUGCUGAGGACACAUGCGCUUUUGUAGAAUUUAACAUCUGGUGUUUUUCUGAAAAAAUAUAUAUACAUAUAUUGCUUUAUUUGAAACAAAUUAAAAUAUGCUGCAUUUGUGGAAUUCUCGGGUGCCAA: 0.761
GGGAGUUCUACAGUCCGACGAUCUCCUUUCUAAUUUUUACUGAACUGAAAGCACAAAGAAGACUACACAGAAAAUCUGGAAACAGUUGCAGGUGUUGGGAGGAAGAUGAAAUCGAGCUGUCUUUUAACUUUUGUGGAAUUCUCGGGUGCCAA: 0.845
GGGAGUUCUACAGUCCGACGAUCUUAGAAGAAGGUGCUGGUGUCACACAUUUUUUUAUAAAAAAUAAAUUUUACAUAGUGAAAUACACCAAGUCUUUUCCGGAGUUAUUACAAAGAGCCUCCUUUCCCCACCUUGGAAUUCUCGGGUGCCAA: 0.483
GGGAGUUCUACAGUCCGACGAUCUUUUCAAUAAUUCCUUUUUACUUCUAGGAAGUCUCAAAAGACCAUCUUAAAUUAUUAUAUGUUUGGACAAUUAGCAACAAGUCAGAUAGUUAGAAUCGAAGUUUUUCAAAUGGAAUUCUCGGGUGCCAA: 0.648
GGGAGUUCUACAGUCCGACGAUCGCCAUUUCAAACAGUUCCAGUGACCUACUCCUUUUAAGUUGGACACCGAGGCCAAAGGCUGCCUCAGCCUUCCCAGCCCAUCCACUCAGCUGUUACCACCCUCUCAGCCUUGGAAUUCUCGGGUGCCAA: 0.377

Other studies, line by line
PhoQ, residues 284 288 289 292 302 303 SMMNNA  fold induction (PhoP, residues 12 14 15 18 19 TPWLV (Escherichia coli, UniProt P23836); Sort-seq, item: YFP reporter; E. coli; PhoQ-PhoP variant library, with: 10 µM Mg2+; relative to: high Mg2+ state, higher = stronger signaling): 1.75

Repeated from above (sample 2):
TCATTCCTCTCACCTCGGACTGTGCTA: 1.7 z-score
GACGGACTGGTTTTCCTGACGTGCTAG: -0.222 z-score
